Results from different studies.
Numbered parts are unrelated; each lists some results of a single study.

Sample 1
Target: RNA binding protein fox-1 homolog 2, RRM domain, GST-SBP tag (RBFOX2, Homo sapiens, UniProt O43251-10, residues 100-194)
Method: RNA Bind-n-Seq
Form: RNA
Matrix: in vitro
Tested at: 365 nM
Setting: natural RNA segment, single round, ends assumed
Reference: no-protein control
Reading: higher = stronger binding
Under “RBNS enrichment (R)”, `GGGAGUUCUACAGUCCGACGAUCAGAGAUUUCCUGCUAGAGGAAAGGGGGAAUCUCUGUGCAUCCCAGCGCUGCCUGGAAACUUACCUUCCCACGGCCCAGGACGCAUUUCAUCGAAUGGAAACAUGUUCUUGUGGAAUUCUCGGGUGCCAA` is recorded as 0.638.
For `GGGAGUUCUACAGUCCGACGAUCUUAUGAACCGUUUCCUCUGAGGGCCACCCUUGAUCUCUAGCAGAACAGCAAGCAGAACACCGUGCAUGCUGGCCACAGCAGUGGAGCCAAGUCUCUGCUGGUUACGGAGCUGGAAUUCUCGGGUGCCAA`, “RBNS enrichment (R)” read 2.16.
For `GGGAGUUCUACAGUCCGACGAUCAUGGUGCCAUCUGACUUUGAGAGCAUAGAAGUCUUUCCCCAGUCUUCUUCAGGGUCUCCCCCCAACCCAACCCAACCAGAUGCUCCCACUUUUAGACAUCUUGUAAUGAAUGGAAUUCUCGGGUGCCAA`, “RBNS enrichment (R)” read 0.677.
For `GGGAGUUCUACAGUCCGACGAUCAUCUCAGGGCCUGUCUUGUCCCCUUCUCGGAGGGCCAGAGAAAAGAUGUGGGAAGGAUAUAGCUCGGGGCUUAGUGAGGAAGAUGGACACCCAUGGUUCAAAGUCUGGUGUGGAAUUCUCGGGUGCCAA`, “RBNS enrichment (R)” read 1.29.

Sample 2
Target: Sal-like protein 4, full length isoform A (SALL4, Homo sapiens, UniProt Q9UJQ4, residues 1-1053)
Sequence of UniProt Q9UJQ4 (whole entry, looked up): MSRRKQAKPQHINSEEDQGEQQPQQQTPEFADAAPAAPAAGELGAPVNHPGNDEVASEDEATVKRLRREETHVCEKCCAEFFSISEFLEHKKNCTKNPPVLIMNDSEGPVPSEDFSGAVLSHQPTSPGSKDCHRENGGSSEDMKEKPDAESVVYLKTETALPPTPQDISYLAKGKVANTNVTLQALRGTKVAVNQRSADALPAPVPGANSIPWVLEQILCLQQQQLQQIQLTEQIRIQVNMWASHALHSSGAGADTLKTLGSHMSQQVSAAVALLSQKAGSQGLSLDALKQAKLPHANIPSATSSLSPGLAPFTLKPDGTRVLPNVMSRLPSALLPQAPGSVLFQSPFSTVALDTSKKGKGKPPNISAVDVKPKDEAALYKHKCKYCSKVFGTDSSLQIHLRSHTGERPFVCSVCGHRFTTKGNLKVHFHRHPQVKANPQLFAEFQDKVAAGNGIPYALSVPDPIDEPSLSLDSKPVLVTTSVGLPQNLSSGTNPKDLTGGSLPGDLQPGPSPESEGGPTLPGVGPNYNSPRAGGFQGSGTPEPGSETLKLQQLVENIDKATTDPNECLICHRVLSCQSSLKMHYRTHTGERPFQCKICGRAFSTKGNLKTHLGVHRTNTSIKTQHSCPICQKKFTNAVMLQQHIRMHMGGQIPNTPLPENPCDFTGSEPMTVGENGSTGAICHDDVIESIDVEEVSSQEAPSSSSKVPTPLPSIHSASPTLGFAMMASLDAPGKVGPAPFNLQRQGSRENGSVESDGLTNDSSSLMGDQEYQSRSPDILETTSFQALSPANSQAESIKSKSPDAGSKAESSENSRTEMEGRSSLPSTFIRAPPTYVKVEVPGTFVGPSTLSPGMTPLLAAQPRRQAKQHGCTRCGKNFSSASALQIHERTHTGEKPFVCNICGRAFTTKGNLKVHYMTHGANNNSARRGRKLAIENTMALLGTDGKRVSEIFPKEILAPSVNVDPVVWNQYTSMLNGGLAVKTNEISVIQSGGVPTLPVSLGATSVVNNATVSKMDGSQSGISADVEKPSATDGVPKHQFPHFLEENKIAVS
Method: universal PBM
Form: double-stranded DNA, one strand shown
Matrix: in vitro
Tested at: 600 nM
Setting: 8-mer, flanks averaged, mean of replicates
Reading: higher = stronger binding
The E-score of `ATCCGAGA` is reported as 0.0463.
The E-score of `ACGTTAAA` is reported as 0.288.
`ATCCTGCC` gave an E-score of -0.278.
For `CAAAAGTG`, the E-score was 0.14.
With `CACATAAA` the E-score was 0.312.
With `ACCCCAGA` the E-score was -0.236.

Sample 3
Target: Interferon regulatory factor 5, full length, phosphomimetic (IRF5, Homo sapiens, UniProt Q13568-2, residues 1-514, K96S/S451D/S453D/S456D/S462D)
Method: protein-binding microarray
Form: double-stranded DNA, one strand shown
Matrix: in vitro
Tested at: 250 nM
Setting: 60-bp whole probe
Together with: salmon DNA 0.4 mg/ml
Reference: random background probes
Reading: higher = stronger binding
The log fluorescence of `GCCTAGCACTAAGGTTTCGGTATCGGTTAGTGCTAGGTCTTGATTCGCTTGACGCTGCTG` is reported as 10.8 z-score.
`GCCTAGCACTCATTTTTCCGAGTGAGACTGTGCTAGGTCTTGATTCGCTTGACGCTGCTG` has a log fluorescence of 0.653 z-score.
`GCCTAGCACCCTAGTTTTACTTTCTATGTGTGCTAGGTCTTGATTCGCTTGACGCTGCTG` has a log fluorescence of 4.94 z-score.
The log fluorescence of `GCCTAGCACTTAGCTTTCGGGTATCGGTTAGTGCTAGTCTTGATTCGCTTGACGCTGCTG` is reported as 10.3 z-score.

Mixed results
`PhoQ, residues 284 288 289 292 302 303 SCEHLI` gave a fold induction of 32.5 (PhoP, residues 12 14 15 18 19 LHTVM (Escherichia coli, UniProt P23836); Sort-seq, item: YFP reporter; E. coli; PhoQ-PhoP variant library, together with: 10 µM Mg2+; reference: high Mg2+ state, higher = stronger signaling).

A few entries again (sample 1):
For `GGGAGUUCUACAGUCCGACGAUCAUGGUGCCAUCUGACUUUGAGAGCAUAGAAGUCUUUCCCCAGUCUUCUUCAGGGUCUCCCCCCAACCCAACCCAACCAGAUGCUCCCACUUUUAGACAUCUUGUAAUGAAUGGAAUUCUCGGGUGCCAA`, “RBNS enrichment (R)” read 0.677.
